# Results from different studies.
# Each line is one published result; not all experiments were run side by side.
# RPS6KA3 N-terminal kinase domain: Ribosomal protein S6 kinase alpha-3, N-terminal kinase domain (RPS6KA3, Homo sapiens, UniProt P51812)
# RPS6KA3 C-terminal kinase domain: Ribosomal protein S6 kinase alpha-3, C-terminal kinase domain (RPS6KA3, Homo sapiens, UniProt P51812)
Structure (SMILES),target,effect on,technique,concentration,reference,remaining binding [%]
CC(=O)N1c2ccc(-c3ccc(CNC(=O)c4cn5cc(-c6cnc(N)nc6)nc(N6CCOCC6)c5n4)cc3)cc2CC[C@@H]1C,RPS6KA3 N-terminal kinase domain,,KINOMEscan,10 µM,,85
CNC(=O)C1CCN(c2cc(C)c(F)cc2NC(=O)c2ccc(-c3cc(O)ccc3C)c(C)c2)CC1,RPS6KA3 N-terminal kinase domain,binding,competition with immobilised ligand,1 µM,,86
Cc1cnc2nc1Nc1cccc(c1)COC/C=C/COCc1cc(ccc1OCCN1CCOCC1)N2,RPS6KA3 C-terminal kinase domain,binding,competition with immobilised ligand,0.1 µM,,73
C=CC(=O)N1CCc2ccc(-n3c(=O)ccc4cnc5ccc(-c6cnn(C)c6)cc5c43)cc21,RPS6KA3 C-terminal kinase domain,,KINOMEscan,1 µM,DMSO control,100
CNC1C[S+]2CC[S+]3CC[S+](C1)[Ru-4]321([N]=C=S)[n]2c3ccc(OC)cc3c3c4c(c5cc(F)c[n+]1c5c32)C(=O)NC4=O (centres unmarked),RPS6KA3 N-terminal kinase domain,,KinomeScan,0.1 µM,untreated,33
Nc1ncc2c(n1)-c1c([nH]c3ccc(C4=CCOCC4)cc13)CCC2,RPS6KA3 N-terminal kinase domain,binding,competition with immobilised ligand,1 µM,,61
COc1c(Cl)cccc1Nc1c(-c2ccncc2C#C[C@@]2(C)CCCN2C(=O)/C=C/CN(C)C)[nH]c2c1C(=O)NCC2,RPS6KA3 C-terminal kinase domain,binding,competition with immobilised ligand,3 µM,,100
CCN1CCN(Cc2ccc(C(=O)Nc3ccc(C)c(NCc4cnc5[nH]ccc5c4OC)c3)cc2C(F)(F)F)CC1,RPS6KA3 C-terminal kinase domain,binding,competition with immobilised ligand,1 µM,,100
C=CC(=O)N1CCCC(n2c(=O)c3ncccc3n(Cc3ccc(Oc4ccccc4)cc3)c2=O)C1 (centres unmarked),RPS6KA3 N-terminal kinase domain,binding,competition with immobilised ligand,1 µM,,69
CN1CCN(Cc2ccc(NC(=O)c3cccc(C#Cc4cnc(N)c5ncccc45)c3)cc2C(F)(F)F)CC1,RPS6KA3 N-terminal kinase domain,cell-free assay,competition with immobilised ligand,0.5 µM,,21
COc1cc(Nc2nccc(-c3cnn4nc(OC)ccc34)n2)cc(C(F)(F)F)c1,RPS6KA3 C-terminal kinase domain,binding,competition with immobilised ligand,1 µM,,70
Cc1c[nH]c2nccc(-c3ccc(C(=O)N[C@@H]4c5c(F)cc(C(F)F)cc5C[C@@H]4O)cn3)c12,RPS6KA3 N-terminal kinase domain,binding,competition with immobilised ligand,3 µM,,5.1
COc1cc(Nc2nc(C)cc(-c3cnn4nc(OC)ccc34)n2)cc(C(F)(F)F)c1,RPS6KA3 N-terminal kinase domain,binding,competition with immobilised ligand,1 µM,,77
CC(C)=CC1OC(C)(C)C2C=C3C(=O)C(Cl)=CC(O)C3C3C(O)C4OC4C(=O)C132 (centres unmarked),RPS6KA3 N-terminal kinase domain,cell-free assay,competition with immobilised ligand,10 µM,,56

# Repeated from above:
Structure (SMILES),target,effect on,technique,concentration,reference,remaining binding [%]
Cc1c[nH]c2nccc(-c3ccc(C(=O)N[C@@H]4c5c(F)cc(C(F)F)cc5C[C@@H]4O)cn3)c12,RPS6KA3 N-terminal kinase domain,binding,competition with immobilised ligand,3 µM,,5.1
CCN1CCN(Cc2ccc(C(=O)Nc3ccc(C)c(NCc4cnc5[nH]ccc5c4OC)c3)cc2C(F)(F)F)CC1,RPS6KA3 C-terminal kinase domain,binding,competition with immobilised ligand,1 µM,,100
